Measured values pooled from the literature.
Protocols differ between the studies behind these lines. ± gives the spread as reported.
Cell line: HT-29

With `COC(=O)C1CN1S(=O)(=O)c1ccccc1` (stereo not shown) the IC50 was 30.2 µg/mL (cell growth or viability, SRB; 72 h).
`O=C(O)[c-]1cccc1.O=C(Oc1ccc(-n2cccc2)cc1)[c-]1cccc1.[Fe+2]` gave an IC50 of 121 µM (cell growth or viability, MTT).
For `O=C(CN1C(=O)S/C(=C\c2ccccc2)C1=O)Nc1ccc(C(=O)Nc2ccc(F)cc2)cc1`, the selectivity index was 15.2 (MTT; relative to: IC50 Vero over IC50 HT-29).
`CC/C=C\C/C=C\C/C=C\C/C=C\C/C=C\C/C=C\CCC(=O)Nc1ccn(C2OC(CO)C(O)C2(F)F)c(=O)n1` (stereo not shown) has a CC50 of 45.1 µM (NCI60 screen).
With `N=C(N)NCCC[C@H](NC(=O)[C@H](Cc1c[nH]c2ccccc12)NC(=O)[C@H](CCC(N)=O)NC(=O)[C@H](Cc1c[nH]c2ccccc12)NC(=O)[C@H](CCCN)NC(=O)[C@H](Cc1c[nH]c2ccccc12)NC(=O)[C@H](CCC(N)=O)NC(=O)[C@H](Cc1c[nH]c2ccccc12)NC(=O)[C@@H](N)CCCNC(=N)N)C(N)=O` the IC50 was over 138 µM (cell growth or viability, MTT).
`CC1=CCC23OC2(C)CCC2C(C[N+](C)(C)C)C(=O)OC2C13.[I-]` (stereo not shown) has an inhibition of 54.9% (cell growth or viability, SRB; 8.3 µM).
With `COc1cc(OC)cc(C2=C3c4ccccc4C(c4ccc(NC(=S)NCCOCCOCCOCCC(=O)N[C@@H](CC(C)C)C(=O)N[C@@H](C)C(=O)N[C@@H](CCCNC(=N)N)C(=O)N[C@@H](CC(C)C)C(=O)N[C@@H](CC(C)C)C(=O)N[C@H](C(N)=O)[C@@H](C)O)cc4)=[N+]3[B-](F)(F)n3c2c2ccccc2c3-c2ccc(NC(=S)NCCNC(=O)CCCC[C@@H]3SC[C@@H]4NC(=O)N[C@@H]43)cc2)c1` the viability was about 40% (200 µM, dark).
`COc1ccccc1/C=C1\SC(=O)N(CC(=O)Nc2ccc(C(=O)Nc3ccc([N+](=O)[O-])cc3)cc2)C1=O` gave a selectivity index of 3.79 (MTT; relative to: IC50 Vero over IC50 HT-29).
With `N=C(N)NCCC[C@H](NC(=O)[C@H](Cc1c[nH]c2ccccc12)NC(=O)[C@H](CCC(N)=O)NC(=O)[C@H](Cc1c[nH]c2ccccc12)NC(=O)[C@H](CCCNC(=N)N)NC(=O)[C@H](Cc1c[nH]c2ccccc12)NC(=O)[C@H](CCC(N)=O)NC(=O)[C@H](Cc1c[nH]c2ccccc12)NC(=O)[C@H](CCCNC(=N)N)NC(=O)CCCCCNC(=O)CCCC[C@@H]1SC[C@@H]2NC(=O)N[C@@H]21)C(N)=O` the IC50 was over 110 µM (cell growth or viability, MTT).
`Cc1cc(O)cc(-c2nc(Nc3cc(C(F)(F)F)cc(C(F)(F)F)c3)ncc2-c2ccnc(Cl)c2)c1`: “cells in S phase” 22 ± 1.2% (DNA flow cytometry; 10 µM, 48 h).

Repeated from above:
`Cc1cc(O)cc(-c2nc(Nc3cc(C(F)(F)F)cc(C(F)(F)F)c3)ncc2-c2ccnc(Cl)c2)c1`: “cells in S phase” 22 ± 1.2% (DNA flow cytometry; 10 µM, 48 h).
